# Published values of several laboratories.
# Each line is one published result; not all experiments were run side by side. ± marks the error that the study gave.
SMILES,tested on,assay,test system,setting,how to read,quantity,value
CC(=O)N1CCN(c2ccc(Nc3ncc4c(n3)N(C)C(=O)N(c3cc(NC(=O)c5ccc(CN6CCC(N(C)C)C6)c(C(F)(F)F)c5)ccc3C)C4)cn2)CC1 (stereo not shown),HepG2 (FGFR4 overexpressing),"cell proliferation, CellTiter-Glo",,72 h,,GI50,0.076 ± 0.04 µM
O=C(NNC(=S)Nc1cccc(C(F)(F)F)c1)c1cccn1-c1ccc(F)cc1,primary rat cortical neurons,measured: tau pS396/pS404,,concentration not given,,reduction in p-tau,~50%
"C=CC(=O)N1CCC(c2cc(Nc3cc4n(n3)CCOC4)c3ncnn3c2)C1 (single isomer, unassigned)",TMD8 wild type,"calcium flux, FLIPR",,"2 h preincubation, added: anti-IgM",,maximum inhibition,26.2%
COc1cc([C@@H]2c3cc4c(cc3C=C(C=O)[C@H]2C(=O)OCCCCCCBr)OCO4)cc(OC)c1OC,Leishmania infantum,iRFP fluorescence,"mouse splenocytes infected, amastigote, iRFP, ex vivo splenic explant",48 h,,EC50,18.1 ± 0.1 µM
CCOc1ccccc1Nc1nnc(SCC(=O)Nc2cc(F)ccc2F)s1,co-cultured human PBMCs,,MucilAir airway epithelium,"10 µM, 48 h, added: anti-CD3/CD28",,IFN-γ secretion,421 ± 13 pg/mL
COC(=O)[C@@]1(C)C=C(C(=O)Nc2cccc(C(=O)NC34CC(Nc5nccc(-c6cccnc6)n5)(C3)C4)c2)C(=O)CC1,HEK293 AP1 reporter cells,"reporter gene, inhibitor, luciferase reporter",,"1 µM, 6 h, unit not given, added: PMA",relative to: PMA-stimulated,AP1 reporter activity,0.795
CCOc1ccc(S(=O)(=O)NC(=O)Cc2ccc(I)cc2)cc1Br,THP1-Dual,IRF reporter gene,,"100 µM, 16 h, added: ht-DNA transfection",,inhibition,76%
COC(=O)[C@@H]1C(c2nc3ccccc3s2)=Cc2cc3c(cc2[C@H]1c1cc(OC)c(OC)c(OC)c1)OCO3,Leishmania infantum,iRFP fluorescence,"mouse splenocytes infected, amastigote, iRFP, ex vivo splenic explant",48 h,,EC50,99.4 ± 6.3 µM
Cc1ncsc1-c1ccc([C@H](C)NC(=O)[C@@H]2C[C@@H](O)CN2C(=O)[C@@H](NC(=O)CCCCCCC(=O)N2CCN(C[C@]3(C)CCC(c4ccc(Cl)cc4)=C(CN4CCN(c5ccc(C(=O)NS(=O)(=O)c6ccc(N[C@H](CCN7CCOCC7)CSc7ccccc7)c(S(=O)(=O)C(F)(F)F)c6)cc5)CC4)C3)CC2)C(C)(C)C)cc1,,,"STAM mice NASH-HCC model, liver","day 150, treated days 45-90",,NAFLD to HCC progression,no effect
C=CC(=O)Nc1cccc(N(C(=O)OCc2ccc(F)cc2)c2ccnc(Nc3ccn(C)n3)n2)c1,Ba/F3 EGFR insGY,cell growth,,,above 10 µM not active,EC50,0.03 µM
O=C(Nc1ccc2cc(NC(=O)C(F)(F)F)nc(Br)c2c1)C(F)(F)F,LX-2,"western blot, measured: collagen I",,"concentration not given, added: TGF-β1",,protein level,decreased
CN(C)C(=O)Cn1cc(-c2ccc(-c3cncc4ccncc34)cc2)cn1,primary AML cells,flow cytometry,,concentration not given,,CD33 surface level,no effect
CCCCCCCCCCCCCCCCNNC(=O)c1ccc(N(C)C)cc1,HEK293T,immunoblot,,"up to 50 µM, 6 h",,α-tubulin acetylation,no effect
Nc1ccc2cc(N)ncc2c1,LX-2,"western blot, measured: α-SMA",,"concentration not given, added: TGF-β1",,protein level,decreased
CC(=NN=c1[nH]c2cc(F)c(F)cc2n1C)c1ccc(F)cn1,triple-negative breast cancer PDX organoids,"organoid growth, inhibitor",,two weeks,,effective concentration,62.5 nM
CC(C)CN(CC(=O)N(CC(=O)N(CC(=O)N(CC(=O)N(CC(=O)N(CC(=O)N(CC(N)=O)Cc1ccccc1)Cc1ccccc1)CC(C)C)Cc1ccccc1)Cc1ccccc1)CC(C)C)C(=O)CNCCCCN,THP-1 macrophages,confocal immunocytochemistry,,"50 µM, 72 h, added: 2 ng/mL LPS",relative to: LPS alone,RAGE surface level,decreased
